# Measured values of several laboratories.
# Protocols differ between the studies behind these lines. Numbers after ± are the reported error.
Compound,tested on,assay,test system,setting,how to read,endpoint,value
Cn1cc(-c2ccc(-c3cncc(Cl)c3N3CCC4(CCNC4=O)CC3)cc2)cn1,COLO 205,"gene expression, microarray, refers to: STC1 mRNA",,"concentration not given, 2 h",relative to: untreated cells,log2 fold change,1.15
Cc1n(Cc2ccc3ccccc3n2)cc[n+]1Cc1ccc2ccccc2c1,NCI60 NSCLC cell lines,cell growth,,,,GI50,≤ 3.93 µM
C=CS(=O)(=O)Nc1ccc(OC)c(-c2c[nH]c3ncc(-c4cncc(C(=O)N(C)C)c4)cc23)c1,Ba/F3 BCR-ABL T315I,cell proliferation,,72 h,,GI50,> 1 µM
Cn1cncc1C1=CN(c2ncnc3[nH]cnc23)CCS1,786-0,,,renal cancer cell line,,GI50,14.8 µM
CC(C)C[C@H](NC(=O)C[C@H](O)[C@H](CC(C)C)NC(=O)[C@H](Cc1c[nH]cn1)NC(=O)CNC(=O)[C@@H](NC(=O)[C@H](C)NC(=O)[C@H](Cc1c[nH]c2ccccc12)NC(=O)[C@H](CCC(N)=O)NC(=O)[C@@H](Cc1ccccc1)NC(=O)COCCOCCNC(=O)CCC(C(=O)O)N1CCN(CC(=O)O)CCN(CC(=O)O)CCN(CC(=O)O)CC1)C(C)C)C(N)=O (some centres unmarked) [lutetium-177 labelled],,,"female BALB/c nu/nu mice, kidneys","intravenous, 100 pmol, 4 h, together with: PA 300 µg",,tissue uptake,3.2 ± 0.9 %ID/g
COc1cc2nc(N3CCCN(C)CC3)nc(NC3CCN(Cc4ccccc4)CC3)c2cc1OC,OCI-Ly1,,,"0.5 µM, 120 h",,viability,175%
c1ccc(-c2n(Cc3ccc4ccccc4c3)cc[n+]2Cc2ccc3ccccc3c2)cc1,NCI60 NSCLC cell lines,cell growth,,,,GI50,≤ 1.78 µM
CN(C)C(=O)c1cncc(-c2cnc3[nH]cc(-c4ccccc4C(F)(F)F)c3c2)c1,Ba/F3 BCR-ABL T315I,cell proliferation,,72 h,,GI50,> 1 µM
O=C(/C=C/C=C/C=C/C1CCCCC1)NC1=C[C@@](O)(/C=C/C=C/C=C/C(=O)NC2=C(O)CCC2=O)[C@@H]2O[C@@H]2C1=O,OVSAHO,"cell growth, CellTiter-Glo",,78 h,,GI50,12.3 µM
COc1ccc(C#N)cc1-c1c[nH]c2ncc(-c3cncc(C(=O)N(C)C)c3)cc12,Ba/F3 BCR-ABL T315I,cell proliferation,,72 h,,GI50,> 1 µM
O=C(O)CNC(=O)C(=O)O,OCI-Ly1,,,"0.5 µM, 120 h",,viability,157%
CC#CC(=O)N1CC[C@@H](n2cc(-c3ccc(Oc4c(F)cccc4F)cc3)c3c(N)n[nH]c(=O)c32)C1,REC-IKZF1^KO,cell growth,,72 h,,GI50,17.9 µM
Cc1c(C(=O)O)ccc2c3n(nc12)[C@@H]1[C@H](C3)N(CC2CC2)[C@@]2(C(=O)Nc3cc(Cl)ccc32)[C@H]1c1cccc(Cl)c1F,UM-UC-11,alamarBlue,bladder cancer cells,unbound concentration,,GI50,0.00041 µM
CCc1n(Cc2ccc3ccccc3n2)cc[n+]1Cc1ccc2ccccc2n1,NCI60 NSCLC cell lines,cell growth,,,,GI50,≤ 12.5 µM

# For quick reference, copied from above:
Compound,tested on,assay,test system,setting,how to read,endpoint,value
Cn1cc(-c2ccc(-c3cncc(Cl)c3N3CCC4(CCNC4=O)CC3)cc2)cn1,COLO 205,"gene expression, microarray, refers to: STC1 mRNA",,"concentration not given, 2 h",relative to: untreated cells,log2 fold change,1.15
c1ccc(-c2n(Cc3ccc4ccccc4c3)cc[n+]2Cc2ccc3ccccc3c2)cc1,NCI60 NSCLC cell lines,cell growth,,,,GI50,≤ 1.78 µM
